Experimental data of several laboratories.
Each line is one published result; not all experiments were run side by side.
Cell line: SK-MEL-5

For CCCCN1CCN(c2ccc3[nH]c(-c4ccc5[nH]c(-c6ccc(C(F)(F)F)cc6)nc5c4)nc3c2)CC1, the growth percent was 10.8% (SRB; 10 µM, 48 h).
The necrotic cells of CC[C@H](C)[C@H](NC(=O)[C@H](CCCCN)NC(=O)[C@@H](NC(=O)[C@H](CCCNC(=N)N)NC(=O)[C@@H](NC(=O)[C@@H](CCCNC(=N)N)NC(=O)[C@@H](CCCNC(=N)N)NC(=O)[C@@H](CCCNC(=N)N)NC(=O)[C@@H](CCCNC(=N)N)NC(=O)[C@@H](CCCNC(=N)N)NC(=O)[C@H](N)CCCNC(=N)N)[C@@H](C)O)[C@@H](C)O)C(=O)N[C@@H](CC(=O)O)C(=O)N[C@@H](Cc1c[nH]c2ccccc12)C(=O)NC(C)(C)C(=O)N[C@@H](CCCCN)C(=O)N[C@H](C(=O)N[C@@H](CC(C)C)C(=O)NC(C)(C)C(=O)N[C@@H](CCCCN)C(=O)NCCCCCC(=O)NCCCC[C@H](NC(=O)CCCCCNC(=O)[C@H](CCCCN)NC(=O)C(C)(C)NC(=O)[C@H](CC(C)C)NC(=O)[C@@H](NC(=O)[C@H](CCCCN)NC(=O)C(C)(C)NC(=O)[C@H](Cc1c[nH]c2ccccc12)NC(=O)[C@H](CC(=O)O)NC(=O)[C@@H](NC(=O)[C@H](CCCCN)NC(=O)[C@@H](NC(=O)[C@H](CCCNC(=N)N)NC(=O)[C@@H](NC(=O)[C@@H](CCCNC(=N)N)NC(=O)[C@@H](CCCNC(=N)N)NC(=O)[C@@H](CCCNC(=N)N)NC(=O)[C@@H](CCCNC(=N)N)NC(=O)[C@@H](CCCNC(=N)N)NC(=O)[C@H](N)CCCNC(=N)N)[C@@H](C)O)[C@@H](C)O)[C@@H](C)CC)[C@@H](C)CC)C(N)=O)[C@@H](C)CC is reported as 14% (annexin V/PI flow cytometry; 10 µM, 6 h).
O=C1NC(c2ccccc2)(c2ccccc2)C(=O)N1Cc1cn(-c2c3ccccc3nc3ccccc23)nn1 has a growth percentage of 82.2% (NCI60 single-dose screen; 10 µM).
The growth percent of CCCN1CCN(c2ccc3nc(-c4ccc5nc(-c6cc(OC)ccc6OC)[nH]c5c4)[nH]c3c2)CC1 is reported as 99.5% (SRB; 10 µM, 48 h).
Cc1cc(-c2ccccc2)n(-c2nc(-c3ccc(Cl)cc3)c3c(NC(=O)c4ccccc4)nnc-3[nH]2)n1 gave a cell growth of 78.5% (SRB; 10 µM, NCI60 single-dose screen; baseline: untreated).
The growth percent of CN1CCN(c2ccc3[nH]c(-c4ccc5[nH]c(-c6ccc(C(F)(F)F)cc6)nc5c4)nc3c2)CC1 is reported as 44.2% (SRB; 10 µM, 48 h).
C#C[C@@]1(O)[C@@H](CO)O[C@@H](n2ccc3c(N)ncnc32)[C@@H]1O has a TGI of 2.96 µM (SRB; NCI-60 screen).
For CSc1nc(-c2ccc(Cl)cc2)c2c(NC(=O)c3ccccc3)nnc-2[nH]1, the cell growth was 98.9% (SRB; 10 µM, NCI60 single-dose screen; baseline: untreated).
With COc1ccc(OC)c(-c2nc3ccc(-c4nc5ccc(N6CCN(C)CC6)cc5[nH]4)cc3[nH]2)c1 the growth percent was 84.3% (SRB; 10 µM, 48 h).
With O=C(/C=C/C=C/C=C/C1CCCCC1)NC1=C[C@@](O)(/C=C/C=C/C=C/C(=O)NC2=C(O)CCC2=O)[C@@H]2O[C@@H]2C1=O the GI50 was 20.5 µM (cell growth, CellTiter-Glo; 78 h).
For Cc1cc(C)n(-c2nc(-c3ccc(Cl)cc3)c3c(NC(=O)c4ccccc4)nnc-3[nH]2)n1, the cell growth was 87.9% (SRB; 10 µM, NCI60 single-dose screen; baseline: untreated).
With Cn1cncc1C1=CN(c2ncnc3[nH]cnc23)CCS1 the TGI was 51.3 µM (melanoma cell line).
For CCCC(CCC)C(=O)OCc1cn(-c2c3ccccc3nc3ccccc23)nn1, the growth percentage was 95.8% (NCI60 single-dose screen; 10 µM).
Cc1cc(=O)[nH]n1-c1nc(-c2ccc(Cl)cc2)c2c(NC(=O)c3ccccc3)nnc-2[nH]1 gave a cell growth of 97.4% (SRB; 10 µM, NCI60 single-dose screen; baseline: untreated).

Repeated from above:
C#C[C@@]1(O)[C@@H](CO)O[C@@H](n2ccc3c(N)ncnc32)[C@@H]1O has a TGI of 2.96 µM (SRB; NCI-60 screen).
With O=C(/C=C/C=C/C=C/C1CCCCC1)NC1=C[C@@](O)(/C=C/C=C/C=C/C(=O)NC2=C(O)CCC2=O)[C@@H]2O[C@@H]2C1=O the GI50 was 20.5 µM (cell growth, CellTiter-Glo; 78 h).
